Results collected from several papers.
Compare with care: the assays were run in different laboratories. Numbers after ± are the reported error.

| SMILES | tested on | test | system | setting | quantity | result |
| --- | --- | --- | --- | --- | --- | --- |
| [64Cu+2].c1cnc(CNCc2ccc(CN3CCCN4CCNCCCN(CC4)CC3)cc2)nc1 | CXCR4 |  | NOD/SCID mouse, U87 and U87-stb-CXCR4 xenografts, spleen | iv, 450 min, ex vivo | tissue uptake | 11 ± 1.06 %ID/g |
| COC1C=COC2(C)Oc3c(C)c(O)c4c(c3C2=O)C2=NC3(CCN(CC(C)C)CC3)NC2=C(NC(=O)C(C)=CC=CC(C)C(O)C(C)C(O)C(C)C(OC(=O)c2cccnc2)C1C)C4=O (stereo not drawn) | Mycobacteroides abscessus | microbial growth | ATCC19977 |  | MIC | 0.024 µM |
| N#Cc1ccc2cccc(O)c2n1 | Aeromonas hydrophila | microbial growth, agar dilution |  |  | MIC | 1500 µM |
| CC[C@@H](C)[C@@H](NC(=O)[C@@H](C)NC(=O)[C@@H](CCCCN)NC(=O)[C@@H](CC(C)C)NC(=O)[C@@H](C)NC(=O)[C@H](NC(=O)[C@@H](CCCCN)NC(=O)[C@@H](CC(C)C)NC(=O)[C@H](NC(=O)[C@@H](CCCCN)NC(=O)[C@@H](CCCCN)NC(=O)[C@@H](CCCCN)NC(=O)[C@@H](C)NC(=O)[C@@H](CCCCN)NC(=O)[C@@H](CO)NC(=O)[C@@H](Cc1ccccc1)NC(=O)[C@H](NC(=O)[C@@H](CCCCN)NC(=O)[C@@H](CC(C)C)NC(=O)[C@@H](Cc1ccccc1)NC(=O)[C@@H](CO)NC(=O)[C@@H](CCCCN)NC(=O)[C@@H](Cc1c[nH]c2ccccc12)NC(=O)[C@@H](CCCCN)NC(C)=O)[C@H](C)O)C(C)C)[C@H](C)O)C(=O)N[C@H](CO)C(=O)N[C@H](CCCCN)C(N)=O | Acinetobacter baumannii |  | 884, Mueller-Hinton broth | 24 h, 37 °C | MIC | 0.3 µM |
| CO[C@@H]1[C@@H](O[C@@H]2O[C@H](C)[C@@H](O[C@H]3C[C@@](C)(O)[C@@H](OC(=O)CC(C)C)[C@H](C)O3)[C@H](N(C)C)[C@H]2O)[C@@H](CC=O)C[C@@H](C)[C@@H](O[C@H]2CC[C@H](N(C)C)[C@@H](C)O2)/C=C/C=C/C[C@@H](C)OC(=O)C[C@H]1O | Staphylococcus aureus, Staphylococcus epidermidis, Bacillus subtilis |  | incl. MRSA | range over four strains | MIC | 4 to 16 µM |
| Oc1c(Br)ccc2cccnc12 | Achromobacter xylosoxidans | agar dilution | ATCC 27061 |  | MIC | 35.7 µM |
| CCCC[C@H](NC(=O)COCCOCCNC(=O)CN1CCN(CC(=O)O)CCN(CC(=O)O)CC1)C(=O)N[C@H]1CC(=O)NCCCC[C@@H](C(N)=O)NC(=O)[C@H](Cc2c[nH]c3ccccc23)NC(=O)[C@H](CCCNC(=N)N)NC(=O)[C@@H](Cc2ccccc2)NC(=O)[C@H](Cc2c[nH]cn2)NC1=O [copper-64 labelled] |  |  | C57 mice, kidney | intravenous, 0.37 MBq, 0.5 h | tissue uptake | 12.1 ± 1.51 %ID/g |
| O=c1c2ccccc2sn1-c1cc(Br)cc(Br)c1 | Candida albicans | growth, broth dilution | ATCC MYA-1237 (resistant) | MIC-0 | MIC | 3.13 µg/mL |
| N=C(N)NCCC[C@@H]1NC(=O)[C@H](CCCCNC(=O)CC[C@H](NC(=O)CC[C@H](NC(=O)CN2CCN(CC(=O)O)CCN(CC(=O)O)CCN(CC(=O)O)CC2)C(=O)N[C@@H](CCC(=O)NCCCC[C@@H]2NC(=O)[C@@H](Cc3ccccc3)NC(=O)[C@H](CC(=O)O)NC(=O)CNC(=O)[C@H](CCCNC(=N)N)NC2=O)C(=O)NCCCC[C@@H]2NC(=O)[C@@H](Cc3ccccc3)NC(=O)[C@H](CC(=O)O)NC(=O)CNC(=O)[C@H](CCCNC(=N)N)NC2=O)C(=O)NCCCC[C@@H]2NC(=O)[C@@H](Cc3ccccc3)NC(=O)[C@H](CC(=O)O)NC(=O)CNC(=O)[C@H](CCCNC(=N)N)NC2=O)NC(=O)[C@@H](Cc2ccccc2)NC(=O)[C@H](CC(=O)O)NC(=O)CNC1=O [indium-111 labelled] |  |  | female athymic nu/nu mice, liver | intravenous, 1 h | tissue uptake | 2.67 ± 0.32 %ID/g |
| CC[C@@H](C)[C@@H](NC(=O)[C@@H](C)NC(=O)[C@@H](CCCCN)NC(=O)[C@@H](CC(C)C)NC(=O)[C@@H](CC(C)C)NC(=O)[C@H](NC(=O)[C@@H](CCCCN)NC(=O)[C@@H](CC(C)C)NC(=O)[C@@H](CCCCN)NC(=O)[C@@H](CCCCN)NC(=O)[C@@H](CCCCN)NC(=O)[C@@H](CCCCN)NC(=O)[C@@H](C)NC(=O)[C@@H](CCCCN)NC(=O)[C@@H](CO)NC(=O)[C@@H](Cc1ccccc1)NC(=O)[C@H](NC(=O)[C@@H](CCCCN)NC(=O)[C@@H](CC(C)C)NC(=O)[C@@H](Cc1ccccc1)NC(=O)[C@@H](CO)NC(=O)[C@@H](CCCCN)NC(=O)[C@@H](Cc1c[nH]c2ccccc12)NC(=O)[C@@H](CCCCN)NC(C)=O)[C@H](C)O)[C@H](C)O)C(=O)N[C@H](CO)C(=O)N[C@H](CCCCN)C(N)=O | Acinetobacter baumannii |  | 689, Mueller-Hinton broth | 24 h, 37 °C | MIC | 1.2 µM |
| CC[C@H](C)[C@@H]1NC(=O)[C@@H]([C@@H](C)O)NC(=O)CNC(=O)[C@H](CC(=O)O)NC(=O)CNC(=O)[C@H](CC(=O)O)NC(=O)CNC(=O)[C@H]2CCCCN2C(=O)[C@@H](NC(=O)[C@H](CC(=O)O)NC(=O)/C=C/CCCCCCCCCC(C)C)CNC(=O)[C@@H]2CCCN2C1=O | Staphylococcus aureus |  | MRSA USA300 | 16 h, 37 °C, together with: Ca2+ 10 mM | MIC | 2 µg/mL |
| O=C1CCN(Cc2ccccc2)CC1C(C[N+](=O)[O-])c1ccccc1 (stereo not drawn) |  | tail immersion test | BALB/c mice | ip, 25 mg/kg, 0.5 h | tail flick response | 19.3% |

A few entries again:
| SMILES | tested on | test | system | setting | quantity | result |
| --- | --- | --- | --- | --- | --- | --- |
| COC1C=COC2(C)Oc3c(C)c(O)c4c(c3C2=O)C2=NC3(CCN(CC(C)C)CC3)NC2=C(NC(=O)C(C)=CC=CC(C)C(O)C(C)C(O)C(C)C(OC(=O)c2cccnc2)C1C)C4=O (stereo not drawn) | Mycobacteroides abscessus | microbial growth | ATCC19977 |  | MIC | 0.024 µM |
